Assay results collected from several papers.
Protocols differ between the studies behind these lines. “And” joins repeats or separate records; there may be more than shown. ± marks the error that the study gave.

SMILES = CSc1cc(Oc2ccnc3[nH]c(=O)cnc23)ccc1NC(=O)Nc1cc(C(C)(C)C)nn1-c1ccccc1; test system = NSG mouse, female, tumor; setting = oral, 20 mg/kg, 1 h after last dose; plasma concentration = 8 µM and 8.88 µM and 16.6 µM and 3.93 µM and 13.1 µM
SMILES = Cc1coc([C@H]2C[C@H]3[C@@H](CF)SC(N)=N[C@@]3(c3ccc(F)cc3F)CO2)n1; test system = male 129/SVE mouse, plasma; setting = subcutaneous, 80 mg/kg, 1 h; plasma concentration = 14.9 µM
SMILES = O=[N+]([O-])c1ccc(-c2ccc(O)cc2)c2cccnc12; test system = ICR mouse, male; setting = oral, 5 mg/kg, 1 h; plasma concentration = 6.39 ng/mL
SMILES = c1ccc(-c2nc(N3CCC(c4ccccn4)C3)c3ccccc3n2)nc1 (stereo not shown); test system = mouse, Balb/c female, plasma; setting = oral, 12.5 mg/kg, 0.25 h, mean, with: aminobenzotriazole pretreatment; plasma concentration = 935 ng/mL
SMILES = CSc1cc(C)nc(SC)c1NC(=O)CN1CCN(CCSc2nc3ccccc3[nH]2)CC1.Cl; test system = mouse Crl:CD1 (ICR) female, plasma; setting = intranasal, 50 µL of 3.24 mg/mL in 0.01 N HCl daily, 120 min, 7 days dosing; plasma concentration = 1.3 ng/mL and 0.8 ng/mL and 23 ng/mL and 2.7 ng/mL
SMILES = CC(=O)NCc1cc2c(cc1F)C(=O)N(C1CCC(=O)NC1=O)C2 (stereo not shown); test system = CD-1 mouse, male; setting = oral, 10 mg/kg parent drug, 1 h; plasma concentration = 4.1 ± 1.8 ng/mL
SMILES = CC(C)c1cc(C(=O)NCCN)c2cnn(C(C)C)c2n1; test system = mouse BALB/c female, plasma; setting = intraperitoneal, 50 mg/kg, 1 h; plasma concentration = 2710 ng/mL and 2600 ng/mL and 3050 ng/mL and 2830 ng/mL
SMILES = C[C@@H](O)[C@H]1C(=O)N2C(C(=O)O)=C(S[C@@H]3CN[C@H](C(=O)N(C)C)C3)[C@H](C)[C@H]12; test system = BALB/c mouse, male, plasma; setting = intraperitoneal, 100 mg/kg, 6 h; plasma concentration = 4650 ng/mL
SMILES = Cc1c(C(=O)O)ccc2c3n(nc12)[C@@H]1[C@H](C3)N(CC2CC2)[C@@]2(C(=O)Nc3cc(Cl)ccc32)[C@H]1c1cccc(Cl)c1F; test system = female BALB/c nude mouse, SJSA-1 xenograft, plasma; setting = oral, 1 mg/kg twice daily, 9 h; plasma concentration = 0.964 µM
SMILES = Cn1cc([C@H]2C[C@H]3CSC(N)=N[C@@]3(c3ccc(F)cc3F)CO2)cn1; test system = male 129/SVE mouse, plasma; setting = subcutaneous, 10 mg/kg, 13 h; plasma concentration = 0.139 µM
SMILES = CCN1CCN(Cc2ccc(NC(=O)c3ccc(C)c(NC(=O)c4cncc(-c5cccs5)c4)c3)cc2C(F)(F)F)CC1; assay = LC-MS/MS; test system = C57BL/6 mouse, plasma; setting = intraperitoneal, 20 mg/kg single dose, 0.5 h; plasma concentration = 690 ng/mL and 755 ng/mL and 697 ng/mL
SMILES = O=C1CCC(N2Cc3cc(CO)c(F)cc3C2=O)C(=O)N1 (stereo not shown); test system = CD-1 mouse, male; setting = oral, 10 mg/kg parent drug, 2 h; plasma concentration = 26.8 ± 20.6 ng/mL
SMILES = CC(=O)N(C)C1CCN(c2cc(F)cc(NC(=O)c3cc4c(F)ccc(C)c4[nH]3)c2)C1 (stereo not shown); test system = CD1 mouse; setting = intravenous, 1 mg/kg, 1 h; plasma concentration = 198 ng/mL
SMILES = Cc1cc([C@H]2C[C@H]3[C@@H](C)SC(N)=N[C@@]3(c3ccc(F)cc3F)CO2)on1; test system = male 129/SVE mouse, plasma; setting = subcutaneous, 50 mg/kg, 18 h; plasma concentration = 0.03 µM
SMILES = CC(C)n1ncc2c(C(=O)NCC3(C)CNC3)cc(C3CC3)nc21; test system = mouse BALB/c female, plasma; setting = intraperitoneal, 50 mg/kg, 2 h; plasma concentration = 2090 ng/mL and 2010 ng/mL and 2190 ng/mL and 1670 ng/mL
SMILES = C[C@H]1O[C@@H](O[C@H]2CC[C@@]3(C)[C@@H](CC[C@]4(C)[C@@H]3C=C[C@]35OC[C@@]6(CCC(C)(C)C[C@H]63)[C@@H](O)C[C@]54C)[C@]2(C)CO)[C@H](O)[C@@H](O[C@@H]2O[C@H](CO)[C@@H](O)[C@H](O)[C@H]2O)[C@H]1O; assay = UHPLC-MS/MS; test system = mouse, plasma; setting = oral, 50 mg/kg, 12 h, pooled samples; plasma concentration = 0 ng/mL
SMILES = CNC(=O)c1cc2c(Oc3ccc(NC(=O)C4(C(=O)Nc5ccc(F)cc5)CC4)cc3)ccnc2cc1OC; assay = LC-MS/MS; test system = mouse, SNU-5 xenograft, plasma; setting = oral, 3 mg/kg once daily for 14 days, 4 h; plasma concentration = 1.88 µM
SMILES = CCCCCN1C[C@H](O)[C@@H](O)[C@H](O)[C@@H]1CO; assay = LC-MS/MS; test system = mouse Hexb-/- female, plasma; setting = 300 mg/kg/day, arithmetic mean; plasma concentration = 3840 ng/mL
SMILES = CCn1c(=O)c(-c2cc(NC(=O)Nc3ccccc3)c(F)cc2Br)cc2cnc(NC)cc21; test system = mouse male, plasma; setting = oral, 15 mg/kg, 1 h; plasma concentration = 568 ng/mL
SMILES = c1csc(CNc2cc[nH]n2)c1; test system = mouse, CD-1, male, plasma; setting = oral, 20 mg/kg as HCl salt, 1 h; plasma concentration = 1.79 µM
SMILES = CC(C)(C)c1cc(NC(=O)Nc2ccc(Oc3ccnc4[nH]c(=O)cnc34)cc2F)n(-c2ccccc2)n1; test system = nude mouse, female, plasma; setting = oral, 20 mg/kg, 1 h after last dose; plasma concentration = 50.8 µM and 30.1 µM and 113 µM and 27.1 µM and 62.8 µM and 35.3 µM
SMILES = Cc1cc([C@H]2C[C@H]3[C@@H](CF)SC(N)=N[C@@]3(c3ccc(F)cc3F)CO2)on1; test system = male 129/SVE wild-type mouse, plasma; setting = subcutaneous, 30 mg/kg, 9 h; plasma concentration = 0.015 µM
